Experimental data from different studies.
Lines come from different studies, so protocols differ. Numbers after ± are the reported error.

For `CCN(CC)CC(=O)Nc1cccc(-n2cc(-c3ccc4ccc(-c5cn(-c6cccc(NC(=O)CN(CC)CC)c6)nn5)cc4c3)nn2)c1`, the fold regulation was -1.15 fold (RCC4; PCR angiogenesis array, item: GAPDH; 5 x IC50, 4 h, normoxia; relative to: untreated).
Under “log2 fold change”, `c1ccc(-c2n[nH]cc2-c2ccnc3ccccc23)nc1` is recorded as 0.08 (HRK1 (Candida albicans); kinase binding, MIB/MS competition; Candida albicans lysate; 1 µM; relative to: DMSO).
For `c1cc(C2CCCCC2)ccc1-c1ccc(N2CCCC2)nc1`, the hepatic clearance was 7 mL/min/kg (liver microsome stability; human liver microsomes; 1 µM, without NADPH).
For `Nc1ncc(-c2cc(-c3cnn(CC(F)(F)F)c3)ncc2F)nc1C(=O)NC1CNCC(F)C1` (stereo not drawn), the remaining binding was 100% (MAK; KINOMEscan; 1 µM; relative to: DMSO control).
The hepatic clearance of `CN(C)C(=O)CNC(=O)c1ccc(C2CCCCC2)cc1` is reported as 79 mL/min/kg (liver microsome stability; mouse liver microsomes; 1 µM).
For `CNS(=O)(=O)Nc1nccc(Cc2c(C)c3ccc(Oc4ncccc4F)cc3oc2=O)c1F`, the IC50 was greater than 1000 nM (NCI-H1299; cell viability; 7 days).
The binding of `C=CC(=O)Nc1cccc(Cn2ncc3cnc(Nc4cnn(CCOC)c4)nc32)c1` is reported as 3.3% (human BIKE; KINOMEscan; 100 nM; relative to: control).
The ΔTm of `C[n+]1cc(/C=N/NC(=O)c2ccc3ccc(C(=O)N/N=C/c4cc5ccccc5[n+](C)c4)nc3n2)cc2ccccc21` is reported as 10.5 ± 0.3 °C (22CTA telomeric G4-DNA antiparallel; FRET melting; 1 µM, K10 buffer, DNA 0.2 µM, together with: ds26 10 µM).
Under “log2 fold change”, `CN1CCCNC(=O)c2cccc(c2)C(=O)NCCCN(C)CCCNc2cccc3c2C(=O)c2cccc(c2C3=O)NCCC1` is recorded as 0.876 (SAS; RNA-Seq, item: ASB13 mRNA; 1 µM, 6 h; relative to: untreated cells).
With `O=C(N/N=C/c1ccc(C[n+]2ccccc2)cc1)C(=O)N/N=C/c1ccc(C[n+]2ccccc2)cc1` the ΔTm was 7 ± 3.7 °C (22CTA telomeric G4-DNA antiparallel; FRET melting; 1 µM, K10 buffer, DNA 0.2 µM).
`COC1CN([C@H]2CC[C@H]([C@@]3(C)Oc4c(Cl)cc(C(=O)NCc5c(SC)cc(C)[nH]c5=O)c(C)c4O3)CC2)C1` — result for “log2 fold change”: 1.31 (RNA-seq, item: SEPTIN8; human, whole blood; dose not given, 24 h; relative to: pretreatment baseline).
The ΔTm of `O=C(N/N=C/c1cc[n+](CC2CC2)c2ccccc12)C(=O)N/N=C/c1cc[n+](CC2CC2)c2ccccc12` is reported as 6.3 ± 2 °C (22CTA telomeric G4-DNA antiparallel; FRET melting; 1 µM, K10 buffer, DNA 0.2 µM).
For `C=CC(=O)N1[C@@H](c2ccc3c(c2)OCO3)c2[nH]c3ccccc3c2C[C@H]1C(=O)N1CCN(C)CC1`, the relative co-enrichment was 197% (human cyclin E1 N112C-3xFLAG:CDK2; co-IP with TMT proteomics, item: RBMX; concentration not given, P38159; relative to: wild type DMSO).
`O=C(N/N=C/c1cc[n+](Cc2ccccc2)c2ccccc12)c1ccc2ccc3ccc(C(=O)N/N=C/c4cc[n+](Cc5ccccc5)c5ccccc45)nc3c2n1` has a ΔTm of 17.5 ± 0.5 °C (22CTA telomeric G4-DNA antiparallel; FRET melting; 1 µM, K10 buffer, DNA 0.2 µM, together with: ds26 10 µM).
For `Cc1ncsc1-c1ccc(C(C)NC(=O)C2CC(O)CN2C(=O)C(NC(=O)CCCCCCCCCCN2CCCC(Nc3ncc(Cl)c(Nc4ccccc4S(=O)(=O)C(C)C)n3)C2)C(C)(C)C)cc1` (stereo not drawn), “log2 fold change” read -2.82 (22Rv1; RNA-seq, item: RIN2 mRNA; concentration not given; relative to: DMSO).

For quick reference, copied from above:
`COC1CN([C@H]2CC[C@H]([C@@]3(C)Oc4c(Cl)cc(C(=O)NCc5c(SC)cc(C)[nH]c5=O)c(C)c4O3)CC2)C1` — result for “log2 fold change”: 1.31 (RNA-seq, item: SEPTIN8; human, whole blood; dose not given, 24 h; relative to: pretreatment baseline).
